# Measurements from different studies.
# Every numbered part comes from another study and shows a few of its results, in no order. “And” joins repeats or separate records; there may be more than shown.
# Chain of UniProt P07949 (whole entry, unmodified, looked up): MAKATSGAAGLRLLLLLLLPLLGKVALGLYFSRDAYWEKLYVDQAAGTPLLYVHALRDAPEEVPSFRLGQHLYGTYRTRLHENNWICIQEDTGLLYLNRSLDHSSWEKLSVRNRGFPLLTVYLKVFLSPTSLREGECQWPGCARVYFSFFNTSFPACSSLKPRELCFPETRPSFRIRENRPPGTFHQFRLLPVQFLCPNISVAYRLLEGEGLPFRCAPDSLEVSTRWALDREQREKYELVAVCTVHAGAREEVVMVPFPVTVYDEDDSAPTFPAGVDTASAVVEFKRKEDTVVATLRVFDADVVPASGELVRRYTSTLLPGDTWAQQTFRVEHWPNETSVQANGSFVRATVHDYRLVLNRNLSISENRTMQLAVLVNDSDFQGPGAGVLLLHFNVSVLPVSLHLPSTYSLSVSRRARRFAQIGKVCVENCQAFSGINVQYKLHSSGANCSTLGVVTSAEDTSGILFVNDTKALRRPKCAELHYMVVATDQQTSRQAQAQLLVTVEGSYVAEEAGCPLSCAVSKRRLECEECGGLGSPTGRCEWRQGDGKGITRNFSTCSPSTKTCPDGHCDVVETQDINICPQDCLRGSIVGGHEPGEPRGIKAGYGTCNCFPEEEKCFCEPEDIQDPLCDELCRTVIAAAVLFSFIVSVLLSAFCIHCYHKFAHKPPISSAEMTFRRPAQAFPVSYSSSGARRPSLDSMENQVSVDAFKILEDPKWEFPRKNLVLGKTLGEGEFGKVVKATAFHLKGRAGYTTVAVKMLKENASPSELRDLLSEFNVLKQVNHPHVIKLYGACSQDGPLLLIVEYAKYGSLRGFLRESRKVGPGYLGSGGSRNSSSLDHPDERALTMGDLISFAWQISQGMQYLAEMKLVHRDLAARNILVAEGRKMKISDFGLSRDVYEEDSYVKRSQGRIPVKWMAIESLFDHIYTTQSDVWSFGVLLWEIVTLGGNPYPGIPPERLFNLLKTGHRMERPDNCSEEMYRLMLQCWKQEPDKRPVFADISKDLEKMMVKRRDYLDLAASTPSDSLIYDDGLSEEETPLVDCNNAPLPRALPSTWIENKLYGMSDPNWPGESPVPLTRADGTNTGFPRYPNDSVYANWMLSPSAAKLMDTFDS
# Chain of UniProt P00519 (whole entry, looked up): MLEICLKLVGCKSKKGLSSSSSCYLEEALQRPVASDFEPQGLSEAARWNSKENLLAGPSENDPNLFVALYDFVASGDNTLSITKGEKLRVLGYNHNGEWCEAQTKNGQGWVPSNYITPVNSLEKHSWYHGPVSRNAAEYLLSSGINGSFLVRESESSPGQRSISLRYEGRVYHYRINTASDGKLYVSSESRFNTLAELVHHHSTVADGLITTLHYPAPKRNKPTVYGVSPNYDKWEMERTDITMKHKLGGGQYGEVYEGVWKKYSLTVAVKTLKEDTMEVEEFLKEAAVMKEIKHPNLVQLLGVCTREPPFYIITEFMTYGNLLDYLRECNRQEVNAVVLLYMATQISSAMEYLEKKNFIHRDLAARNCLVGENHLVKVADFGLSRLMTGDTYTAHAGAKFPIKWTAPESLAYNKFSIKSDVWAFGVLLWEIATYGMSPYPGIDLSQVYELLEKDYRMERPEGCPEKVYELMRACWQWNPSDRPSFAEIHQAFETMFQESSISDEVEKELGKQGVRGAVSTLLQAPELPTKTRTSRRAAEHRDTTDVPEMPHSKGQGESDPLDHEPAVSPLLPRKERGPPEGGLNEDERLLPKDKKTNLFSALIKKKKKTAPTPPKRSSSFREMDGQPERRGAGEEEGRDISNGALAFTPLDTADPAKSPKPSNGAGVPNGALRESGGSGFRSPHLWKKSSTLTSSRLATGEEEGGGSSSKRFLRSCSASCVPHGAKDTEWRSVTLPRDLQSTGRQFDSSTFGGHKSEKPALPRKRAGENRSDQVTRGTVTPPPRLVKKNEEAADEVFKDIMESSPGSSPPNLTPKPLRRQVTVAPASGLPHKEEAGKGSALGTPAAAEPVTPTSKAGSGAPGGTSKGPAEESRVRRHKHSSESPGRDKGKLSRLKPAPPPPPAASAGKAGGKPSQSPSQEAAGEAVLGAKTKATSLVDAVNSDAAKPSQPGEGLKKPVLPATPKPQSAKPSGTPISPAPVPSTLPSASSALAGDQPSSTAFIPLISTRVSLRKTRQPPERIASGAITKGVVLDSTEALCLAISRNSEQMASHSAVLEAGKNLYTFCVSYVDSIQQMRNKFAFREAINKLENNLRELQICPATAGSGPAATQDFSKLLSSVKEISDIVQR
# Chain of UniProt P35968 (whole entry, looked up): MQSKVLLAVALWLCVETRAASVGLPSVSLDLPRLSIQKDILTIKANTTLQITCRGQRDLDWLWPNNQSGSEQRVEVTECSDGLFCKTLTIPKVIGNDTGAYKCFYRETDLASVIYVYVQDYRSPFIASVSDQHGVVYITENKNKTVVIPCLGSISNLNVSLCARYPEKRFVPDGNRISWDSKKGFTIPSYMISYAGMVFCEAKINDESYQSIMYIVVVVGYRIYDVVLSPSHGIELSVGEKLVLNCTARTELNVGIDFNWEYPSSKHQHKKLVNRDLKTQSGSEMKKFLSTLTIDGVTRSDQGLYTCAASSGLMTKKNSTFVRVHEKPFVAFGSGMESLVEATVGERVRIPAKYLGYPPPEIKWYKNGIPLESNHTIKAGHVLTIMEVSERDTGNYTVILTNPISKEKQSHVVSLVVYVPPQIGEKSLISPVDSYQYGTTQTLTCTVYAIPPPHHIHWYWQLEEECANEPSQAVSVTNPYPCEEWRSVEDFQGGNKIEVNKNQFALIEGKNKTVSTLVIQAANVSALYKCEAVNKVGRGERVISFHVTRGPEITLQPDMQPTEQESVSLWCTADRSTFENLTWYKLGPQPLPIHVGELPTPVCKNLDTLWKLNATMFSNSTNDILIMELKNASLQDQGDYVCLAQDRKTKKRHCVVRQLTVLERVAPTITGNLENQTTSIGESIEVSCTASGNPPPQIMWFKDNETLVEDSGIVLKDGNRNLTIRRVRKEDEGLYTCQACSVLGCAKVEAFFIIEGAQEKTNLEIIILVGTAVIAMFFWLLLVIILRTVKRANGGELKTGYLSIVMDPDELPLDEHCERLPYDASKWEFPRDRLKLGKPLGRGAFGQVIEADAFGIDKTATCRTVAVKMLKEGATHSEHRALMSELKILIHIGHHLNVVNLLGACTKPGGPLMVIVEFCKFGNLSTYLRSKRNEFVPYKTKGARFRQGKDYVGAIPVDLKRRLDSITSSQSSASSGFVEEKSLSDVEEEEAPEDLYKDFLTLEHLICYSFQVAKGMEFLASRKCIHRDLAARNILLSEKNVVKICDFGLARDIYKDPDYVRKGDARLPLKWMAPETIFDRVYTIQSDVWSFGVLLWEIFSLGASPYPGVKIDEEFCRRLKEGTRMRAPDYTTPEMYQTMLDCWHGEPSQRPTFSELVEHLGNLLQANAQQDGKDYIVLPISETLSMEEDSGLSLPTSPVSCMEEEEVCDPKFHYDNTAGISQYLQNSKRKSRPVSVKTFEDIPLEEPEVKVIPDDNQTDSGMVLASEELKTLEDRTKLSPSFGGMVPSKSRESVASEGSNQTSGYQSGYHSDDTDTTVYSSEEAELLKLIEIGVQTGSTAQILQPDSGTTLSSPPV

# Set 1
# Species: mouse
# Medium: microsomes or S9
# Tested at: 2 µM
# Time: 0.5 h
SMILES,remaining compound [%]
COc1cc(Br)c(/C=C2\Oc3ccccc3C2O)cc1OC (stereo not drawn),> 99.9
Cc1ccc(N2N3C(=O)OC4(C)CCC(C2(C)C)C34C)cc1 (stereo not drawn),0.244
CC(C)C1(C)SC(NC2CC3CCC2C3)=NC1=O (stereo not drawn),65.8
CC1=CC(C)(C)N2C(=O)C3(NCCc4c3[nH]c3ccccc43)c3cccc1c32 (stereo not drawn),0.157
Cc1nn2c(-c3ccccc3)c(C#N)nnc2c1-c1ccccc1,75
C[C@@H]1C[C@H]2[C@@H]3CCC4=CC(=O)C=C[C@]4(C)C3(F)[C@@H](O)C[C@]2(C)[C@@]1(O)C(=O)CO (stereo partly drawn),88.8

# Set 2
# Cell line: mouse MPNST tumor cells
# Method: high-content nuclear imaging
# Measured: cell number
# Tested at: 10 µM
# Time: 12 h
# Setting: mean of 2 replicates
# Baseline: plate mean
# Direction: higher = more cells
SMILES,nuclei count
NCCCCCCNS(=O)(=O)c1cccc2c(Cl)cccc12,1.43 z-score
CCOC(=O)C(C)(C)Oc1ccc(Cl)cc1,0.905 z-score and 0.632 z-score
CN1CCOC(c2ccccc2)c2ccccc2C1 (stereo not drawn),4.18 z-score
N#Cc1cc2[nH]c(=O)c(=O)[nH]c2cc1[N+](=O)[O-],1.36 z-score
Clc1ccc2nsnc2c1NC1=NCCN1,0.858 z-score and 1.85 z-score
CCOc1cc(C(=O)N2CCC(N3CCN(C)CC3)CC2)ccc1Nc1ncc2c(n1)N(S(C)(=O)=O)c1ccccc1C(=O)N2C,-0.0767 z-score

# Set 3
# Target: Platelet-derived growth factor receptor beta (PDGFRB, Homo sapiens, UniProt P09619)
# Chain of UniProt P09619 (whole entry, looked up): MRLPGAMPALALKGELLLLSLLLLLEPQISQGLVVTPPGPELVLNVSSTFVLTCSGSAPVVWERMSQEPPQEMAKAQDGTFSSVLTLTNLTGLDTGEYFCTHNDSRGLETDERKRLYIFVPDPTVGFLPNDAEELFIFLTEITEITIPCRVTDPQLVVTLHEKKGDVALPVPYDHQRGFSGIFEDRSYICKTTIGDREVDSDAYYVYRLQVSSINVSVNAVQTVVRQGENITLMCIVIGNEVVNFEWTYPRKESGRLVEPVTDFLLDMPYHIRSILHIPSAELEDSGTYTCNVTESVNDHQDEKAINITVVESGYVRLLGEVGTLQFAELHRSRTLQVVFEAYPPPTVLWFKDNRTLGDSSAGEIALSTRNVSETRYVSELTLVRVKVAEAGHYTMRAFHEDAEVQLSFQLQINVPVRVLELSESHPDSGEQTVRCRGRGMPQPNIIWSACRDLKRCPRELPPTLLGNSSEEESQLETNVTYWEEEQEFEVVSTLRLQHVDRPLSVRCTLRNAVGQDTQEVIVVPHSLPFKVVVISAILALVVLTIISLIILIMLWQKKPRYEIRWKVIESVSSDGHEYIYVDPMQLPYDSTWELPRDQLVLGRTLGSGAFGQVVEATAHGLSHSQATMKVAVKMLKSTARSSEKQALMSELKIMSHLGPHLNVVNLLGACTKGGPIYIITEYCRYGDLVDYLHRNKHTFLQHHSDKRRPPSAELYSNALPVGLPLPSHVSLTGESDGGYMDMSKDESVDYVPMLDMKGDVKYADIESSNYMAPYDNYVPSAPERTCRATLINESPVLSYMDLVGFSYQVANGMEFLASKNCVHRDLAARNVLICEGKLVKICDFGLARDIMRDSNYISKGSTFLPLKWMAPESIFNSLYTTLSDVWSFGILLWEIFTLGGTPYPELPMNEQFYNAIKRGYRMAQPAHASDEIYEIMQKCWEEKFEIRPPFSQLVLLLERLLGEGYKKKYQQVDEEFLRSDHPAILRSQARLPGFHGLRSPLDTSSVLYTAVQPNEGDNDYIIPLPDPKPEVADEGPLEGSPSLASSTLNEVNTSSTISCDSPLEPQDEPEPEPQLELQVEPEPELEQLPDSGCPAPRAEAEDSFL
# Effect on: enzyme activity
# Action: inhibitor
# Tested at: 0.5 µM
# Baseline: control
SMILES,remaining activity [%]
CO[C@H]1C[C@@H]2CC[C@@H](C)[C@@](O)(O2)C(=O)C(=O)N2CCCC[C@H]2C(=O)O[C@H]([C@H](C)C[C@@H]2CC[C@@H](O)[C@H](OC)C2)CC(=O)[C@H](C)/C=C(\C)[C@@H](O)[C@@H](OC)C(=O)[C@H](C)C[C@H](C)/C=C/C=C/C=C/1C,108
CCOC(=O)c1c(C)[nH]c(/C=C2\C(=O)Nc3ccccc32)c1C,69.1
N#CC(C#N)=C(N)/C(C#N)=C/c1ccc(O)cc1,98.8
COc1ccc(C(=O)Nc2sc3c(c2C(N)=O)CCCC3)cc1OC,90.9
O=C1NC(=O)C(c2cn(CCCn3ccnc3)c3ccccc23)=C1Nc1ccccc1,76.5
Nc1ncnc2n[nH]c(Nc3ccc(F)cc3)c12,98
C#Cc1cccc(Nc2ncnc3cc(OCCOC)c(OCCOC)cc23)c1,91.1
Nc1ccc2ncnc(NCCc3ccc(Oc4ccccc4)cc3)c2c1,105
COc1cc2nccc(Oc3ccc(NC(=S)NC(=O)c4ccccc4C)cc3)c2cc1OC,26.7
Cc1ccc(NC(=O)c2ccc(CN3CCN(C)CC3)cc2)cc1Nc1nc(-c2cccnc2)cs1,17.3
Cn1c2ccccc2c2c3c(c4c5ccccc5n(CCC#N)c4c21)CNC3=O,60.6
COc1ccc(OC)c2c(=S)c3ccccc3[nH]c12,98.1
Cc1cccc(-c2[nH]c(C(C)(C)C)nc2-c2ccc3c(c2)OCO3)n1,106
Cc1ccc(Nc2nccc(N(C)c3ccc4c(C)n(C)nc4c3)n2)cc1S(N)(=O)=O,40.4

# Set 4
# SMILES: CNC(=O)Nc1ccc2c(c1)CC[C@@]21OC(=O)N(CC(=O)N(Cc2ccc(F)cc2)[C@@H](C)C(F)(F)F)C1=O
# Effect on: cell-free assay
# Method: competition with immobilised ligand
# Tested at: 1 µM
target,remaining binding
"Receptor-type tyrosine-protein kinase FLT3 (FLT3, Homo sapiens, UniProt P36888, D835Y)",100%
"Proto-oncogene tyrosine-protein kinase receptor Ret (RET, Homo sapiens, UniProt P07949, M918T)",95%
"Phosphatidylinositol 3-kinase catalytic subunit type 3 (PIK3C3, Homo sapiens, UniProt Q8NEB9)",88%
"Tyrosine-protein kinase ABL1, phosphorylated (ABL1, Homo sapiens, UniProt P00519)",72%
"Receptor tyrosine-protein kinase erbB-4 (ERBB4, Homo sapiens, UniProt Q15303)",100%
"Receptor-type tyrosine-protein kinase FLT3 (FLT3, Homo sapiens, UniProt P36888, K663Q)",100%
"Vascular endothelial growth factor receptor 2 (KDR, Homo sapiens, UniProt P35968)",83%

# For quick reference, copied from above (set 4):
target,remaining binding
"Phosphatidylinositol 3-kinase catalytic subunit type 3 (PIK3C3, Homo sapiens, UniProt Q8NEB9)",88%
"Tyrosine-protein kinase ABL1, phosphorylated (ABL1, Homo sapiens, UniProt P00519)",72%
"Receptor tyrosine-protein kinase erbB-4 (ERBB4, Homo sapiens, UniProt Q15303)",100%
